Measurements gathered from unrelated publications.
Several values in a cell are separate wells, animals, samples, runs or records. ± marks the error that the study gave.
Organism: Salmonella typhimurium

| Compound | test | test system | conditions | how to read | measurement | result |
| --- | --- | --- | --- | --- | --- | --- |
| COc1cccc(-c2n[nH]c(SCc3ccccn3)n2)c1OC | Ames test, plate incorporation | TA1535 | 2.0 mg/plate, with rat liver S9 |  | revertant colonies per plate | 8 |
| CN(C)c1ccc(N=NS(=O)(=O)[O-])cc1.[Na+] | Ames test | TA97a | 10 µg/well, without S9 |  | revertant colonies | 960 colonies/well and 896 colonies/well and 928 colonies/well |
| O=NN1CCN(C2CCCC2)CC1 | mutagenicity, Ames plate incorporation | TA1537 | 500 µg/plate, 3 d, without S9, methanol |  | revertant colonies per plate | 11.7 ± 2 |
| Nc1c2ccccc2nc2ccccc12.Nc1c2ccccc2nc2ccccc12.O |  | TA1537 | 50 µg/plate, together with: without S9 |  | mean revertants per plate | 255 revertants/plate |
| CN(N=O)c1ccc(F)cc1 | mutagenicity, Ames plate incorporation | TA98 | 50 µg/plate, 3 d, without S9, methanol |  | revertant colonies per plate | 37.3 ± 8 |
| CC(=O)N1CCC(C(=O)N2CCN3C(=O)c4cc(-c5ccccc5)ccc4NC(=O)C3C2)CC1 (stereo not shown) |  | TA98 | 158 µg/plate, together with: rat liver S9 | relative to: vehicle | fold increase in revertants | 1 |
| O=C(O)CCCOc1ccc(F)cc1-c1cc(-c2ccccc2C(F)(F)F)n(-c2ccccc2)n1 | Ames test | TA1537 | concentration not given, without S9 metabolic activation |  | growth-inhibiting concentration | ≥ 625 µg/plate |
| Cc1cc(C(=O)NC(C)(C)COc2cccc3c2C(N)=NS(=O)(=O)N3)cc(C)n1 | Ames test, initial | TA98 | 500 µg/plate, together with: rat liver S9 | relative to: solvent control | revertant ratio | 1 |
| COS(C)(=O)=O | Ames test | TA100 | 0.2 µg/well, 48 h, without S9 |  | revertant colonies | 512 colonies/well and 560 colonies/well and 480 colonies/well |
| O=[N+]([O-])c1ccc(N2CCC(NCCC(O)c3ccc(F)c4ccccc34)CC2)c(C(F)(F)F)c1 (stereo not shown) | genotoxicity, SOS/umu test | TA1535/pSK1002 | 0.016 mg/mL, 4 h, with S9, full range |  | induction factor | 1 |
| CN(CC(C)(C)C)N=O | mutagenicity, Ames plate incorporation | TA100 | 1500 µg/plate, without S9, methanol |  | revertant colonies per plate | 196 ± 13 |
| Nc1c2ccccc2nc2ccccc12 | Ames test, initial | TA1537 | 75 µg/plate | relative to: solvent control | revertant ratio | 57.2 |
| Fc1ccc(C2=CCNCC2)cc1 | genotoxicity, SOS/umu test | TA1535/pSK1002 | 0.125 mg/mL, 4 h, without S9, full range |  | induction factor | 0.8 |
| N#C[C@@]1(n2ccc(N)nc2=O)O[C@H](CO)[C@@H](O)[C@H]1O |  | TA100 | 5 µM, without S9 | relative to: control | viability | 104% |
| O=[N+]([O-])c1ccc2c(c1)Cc1ccccc1-2 | preincubation Ames test | TA98 | 5 µg per plate |  | revertant colonies per plate | 1370 |
| CNC(=O)c1c(N(C)N=O)ncn1C | plate incorporation | TA1535, water | 5000 µg/plate, without S9 |  | revertant colonies per plate | 30.7 ± 7 |
| O=[N+]([O-])c1ccc(NC2CCNCC2)c(C(F)(F)F)c1 | SOS response, SOS/umu test | TA1535/pSK1002, TGA medium | 1 mg/mL, 4 h, together with: 10% rat liver S9 | relative to: untreated | induction factor | 1.6 |
| Nc1ccc2cc3ccccc3cc2c1 | Ames test, initial | TA1537 | 2.0 µg/plate, together with: rat liver S9 | relative to: solvent control | revertant ratio | 5.3 |
| O=[N+]([O-])c1ccc(N2CCN(CCC(O)c3ccc(F)cc3)CC2)c(C(F)(F)F)c1 (stereo not shown) | SOS response, SOS/umu test | TA1535/pSK1002, TGA medium | 0.001 mg/mL, 4 h, together with: rat liver S9 | relative to: untreated | induction factor | 1.3 |
| CC(C)N(N=O)C(C)C | mutagenicity, Ames plate incorporation | TA1535 | 5000 µg/plate, without S9, methanol |  | revertant colonies per plate | 30.7 ± 6 |
| O=[N+]([O-])c1ccc2c(c1)Cc1ccccc1-2 |  | TA98 | 1 µg/plate, together with: without S9 |  | mean revertants per plate | 193 revertants/plate |
| OC(CCN1CC=C(c2ccc(F)cc2)CC1)c1ccc(F)c2ccccc12 (stereo not shown) | genotoxicity, SOS/umu test | TA1535/pSK1002 | 0.25 mg/mL, 4 h, with S9, lower range |  | induction factor | 0.3 |

For quick reference, copied from above:
| Compound | test | test system | conditions | how to read | measurement | result |
| --- | --- | --- | --- | --- | --- | --- |
| O=[N+]([O-])c1ccc(NC2CCNCC2)c(C(F)(F)F)c1 | SOS response, SOS/umu test | TA1535/pSK1002, TGA medium | 1 mg/mL, 4 h, together with: 10% rat liver S9 | relative to: untreated | induction factor | 1.6 |
| OC(CCN1CC=C(c2ccc(F)cc2)CC1)c1ccc(F)c2ccccc12 (stereo not shown) | genotoxicity, SOS/umu test | TA1535/pSK1002 | 0.25 mg/mL, 4 h, with S9, lower range |  | induction factor | 0.3 |
